Published values from different studies.
Each numbered part is a random draw from the data of one study; scales do not carry over between parts. Changes are numbered by the printed parent chain.

Set 1
Target: Prothrombin, mature alpha-thrombin (F2, Homo sapiens, UniProt P00734)
Technique: aptamer microarray, sandwich
Molecule type: DNA with 2'F-ANA
Sample: in vitro
Tested at: 200 nM
Notes: whole 15-mer aptamer, many near background
Added: Cy3 exosite-II aptamer, 400 nM
Direction: higher = stronger binding
Strand: GGTTGGTGTGGTTGG
| Modification | mean fluorescence intensity |
| --- | --- |
| 2'F-ANA at 4 5 7 8 9 10 11 13 | 45.7 a.u. |
| 2'F-ANA at 1 4 5 7 8 10 12 13 14 | 86.3 a.u. |
| 2'F-ANA at 2 3 4 6 10 13 | 206 a.u. |
| 2'F-ANA at 2 3 4 5 7 8 10 14 15 | 78.3 a.u. |
| 2'F-ANA at 1 4 6 10 11 12 | 92.9 a.u. |
| 2'F-ANA at 4 5 6 8 10 12 14 | 49.2 a.u. |
| 2'F-ANA at 1 5 7 8 9 11 14 15 | 56.7 a.u. |
| 2'F-ANA at 1 2 4 7 8 9 13 | 99.4 a.u. |

Set 2
Target: RING finger protein unkempt homolog, zinc fingers 1-6, GST-SBP tag (UNK, Homo sapiens, UniProt Q9C0B0, residues 30-357)
Chain of UniProt Q9C0B0 (30-357, looked up): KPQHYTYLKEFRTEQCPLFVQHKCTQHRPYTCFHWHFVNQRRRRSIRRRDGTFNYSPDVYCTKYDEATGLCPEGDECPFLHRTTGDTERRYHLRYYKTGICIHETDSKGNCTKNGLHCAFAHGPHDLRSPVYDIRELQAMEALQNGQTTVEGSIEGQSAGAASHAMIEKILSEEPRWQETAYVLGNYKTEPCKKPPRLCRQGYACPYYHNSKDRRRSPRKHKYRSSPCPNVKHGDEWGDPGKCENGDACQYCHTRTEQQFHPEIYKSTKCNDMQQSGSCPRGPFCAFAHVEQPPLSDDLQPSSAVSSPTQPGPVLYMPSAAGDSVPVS
Technique: RNA Bind-n-Seq
Molecule type: RNA
Sample: in vitro
Tested at: not given
Notes: RNA with constant flanks, human and mouse sites, ends assumed
Baseline: input RNA pool
Direction: higher = stronger binding
All sequences stand within: GGGAGUUCUACAGUCCGACGAUC … CAACAGAGGAUUGAGCAUCA
| Strand | bound/input enrichment |
| --- | --- |
| AAAGCUUUAAAAAUGCCUCUGCCUUGCCUGCAAUACAUGCAAUGUGUGUUAACUGAGUCUGUUCUCAGAAUCUGUUGGUAGUUAUUUCUGUGUUUUCCCUUUUUUUAAAGAAAUGUAUUU | 0.464 ratio |
| AAUGUGGCAUUCAUGAGCUACUUUUUACAGGGCAAGGUUGAUGCCUGCCUAGAGCUCUUAAUUAGAACUGGACGGCUGCCAGAAGCUGCCUUCUUGGCCCGAACUUACUUACCCAGUCAG | 0.353 ratio |
| CCCCCAGACACUGCUGCCAGGCUGGGCUGGUCCCAGCCCUUAGGUAACCUCCAAGCUCCCUUAGGCUAUGAUAAGUUUAGCUAUUCUUGGCGGAGCAAGAAAGGCACCAAGUUCCACCAG | 0.396 ratio |
| ACGCGGAACAUGGCGCGUUCCUAGAAGCCGUUUUCGGCAUCAGUAGGCGGCAGCGUGUGGACUAGGAGCGUGGGGGACGAGGAAGCAACCAACGCCGCUUCGUGUGGACAAGUGGAAAGG | 0.228 ratio |
| CCCAUGCUUUUAUGGACACUAGGUAAAACGCCUUCAGCUUAAAAUUUUUGUUAAAUAAUUUAGUUUAUUUUAUUGUUAUCUUCCAGGUGUCUAAAUCUCCAGUCUGUCUGUUGUACUGGU | 23.6 ratio |
| AACUUUAGGUGCACGAGGGGCACUUAUUGUUUUUGCUUUUCGUCCCCUCCCCCUGCUCUCCUAGGCCUGUAAUUCUCUUAAGGUCUACUGGAUCAUUCCUUGUACCCUGCAAAAUUCACU | 0.197 ratio |
| GUAGCUUCUAGAGAUAAUUUUGAGGAUGAGACUGAAGAUGAUGAUCUGUUUGAAACUGAAUUUAGACAAUAUAAGAGAACAUACUACAUGACGAAGAUGGGCGUCGAUGUAGUAUCUGAU | 4.27 ratio |

Set 3
Target: ABI1, truncated, D143A, DHFR fusion (Arabidopsis thaliana)
Technique: DHFR PCA, deep sequencing
Sample: yeast
Notes: methotrexate growth selection, single substitutions
Added: (+)-ABA 0.032 µM
Baseline: wild-type fitted maximum
Direction: higher = stronger binding
Starting sequence: PYL1, truncated, DHFR fusion (Arabidopsis thaliana); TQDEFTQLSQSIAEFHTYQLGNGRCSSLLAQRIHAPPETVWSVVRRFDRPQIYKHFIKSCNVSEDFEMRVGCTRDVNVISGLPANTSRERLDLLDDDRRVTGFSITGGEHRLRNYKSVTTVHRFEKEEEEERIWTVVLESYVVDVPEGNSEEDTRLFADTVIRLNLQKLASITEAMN
| Variant | relative binding score |
| --- | --- |
| E130Y | 17.3% |
| R32P | 6.05% |
| K54S | 3.07% |
| Y115W | -1.29% |
| E89F | 3.02% |
| S11L | 4.48% |

Mixed results
| Molecule | target | test | test system | conditions | how to read | quantity | result |
| --- | --- | --- | --- | --- | --- | --- | --- |
| PhoQ, residues 284 288 289 292 302 303 TTSMTC | PhoP, residues 12 14 15 18 19 NQGLL (Escherichia coli, UniProt P23836) | Sort-seq, item: YFP reporter | E. coli | PhoQ-PhoP variant library, added: 10 µM Mg2+ | baseline: high Mg2+ state, higher = stronger signaling | fold induction | 4.97 |

Excerpt of the above (set 3):
| Variant | relative binding score |
| --- | --- |
| K54S | 3.07% |
| Y115W | -1.29% |
